# Assay results pooled from the literature.
# ± gives the spread as reported.
SMILES,target or system,assay,test system,conditions,how to read,endpoint,result
C=C(c1ccc(C(=O)O)c(F)c1)c1cc2c(cc1C)C(C)(C)C=CC2(C)C,,"RNA sequencing, item: Nmb","rat, brain","dose not given, 24 h",reference: vehicle,log2 fold change,-1
COC1CCC(N(C(=O)C2CCC(C)CC2)c2cc(C3=CCCCC3)sc2C(=O)O)CC1 (centres unmarked),,,Solanum lycopersicum seedlings,"10 or 30 µM, no sugar, mannitol medium",,hypocotyl length,no effect
NCCCC[C@H](NC(=O)[C@H](Cc1ccc(O)cc1)NC(=O)[C@H](CCCCN)NC(=O)[C@H](Cc1c[nH]c2ccccc12)NC(=O)[C@H](Cc1ccccc1)NC(=O)[C@H](Cc1ccccc1)NC(=O)Cc1ccc(-c2ccccc2)cc1)C(=O)NCC(=O)N[C@@H](Cc1c[nH]cn1)C(=O)N1CCC[C@H]1C(=O)NCC(=O)NCC(=O)N1CCC[C@H]1C(=O)N[C@@H](CCC(N)=O)C(=O)N[C@@H](CC(=O)O)C(=O)N[C@@H](CC(=O)O)C(=O)N[C@@H](CC(=O)O)C(=O)N[C@@H](CC(=O)O)C(=O)N[C@@H](CC(=O)O)C(=O)N[C@@H](CC(=O)O)C(=O)O,,TRAP staining,"bone marrow-derived macrophages, mouse","64 µM, added on day 5, stained day 6, added: RANKL",reference: RANKL control,osteoclast number,decreased
C[C@H](CC(=O)C[C@@H](C)[C@H]1C[C@H](O)[C@@]2(C)C3=C(C(=O)C[C@]12C)[C@@]1(C)CCC(=O)C(C)(C)[C@@H]1C[C@@H]3O)C(=O)O,,oral glucose tolerance test,"mouse, STZ-induced type 1 diabetes","oral, dose not given, 1 h",reference: control,blood glucose,75 to 85%
COc1cc(CNC(=O)C[C@H](C)CCC=C(C)C)ccc1OCc1cn(-c2ccc(C#N)cc2)nn1,KM12,SRB,,"10 µM, 48 h",,growth percent,71.7%
COc1c2c(cc3oc(CO)cc(=O)c13)O[C@H](C(C)(C)O)C2,,analgesia,mouse,"oral, 1 mg/kg, 2 h",,hot plate latency,12.7 ± 1.44 s
CSCC[C@H](NC(=O)[C@H](CC(C)C)NC(=O)CNC(=O)[C@H](Cc1ccccc1)NC(=O)[C@H](Cc1ccccc1)NC(=O)[C@H](CCC(N)=O)NC(=O)[C@H](CCC(N)=O)NC(=O)[C@@H]1CCCN1C(=O)[C@H](CCCCN)NC(=O)[C@@H]1CCCN1C(=O)[C@@H](N)CCCNC(=N)N)C(N)=O,,,"diabetic mice, hindlimb ischemia","intravenous, 2.5 nmol/kg immediately and at day 6, 28 days",,limb loss,57.1%
CC(C)c1cnc(-c2cc(Cl)ccc2F)cc1Nc1ccncc1C(=O)NC(CO)CO,,,"human, advanced solid tumour","concentration not given, phase I",,duration of stable disease,35 to 283 days
COC(=O)c1cnc(-c2cnccn2)cc1C(=O)OC.COC(=O)c1cnc(-c2cnccn2)cc1C(=O)OC.F[P-](F)(F)(F)(F)F.[Ag+],calf thymus DNA,ethidium bromide displacement,,pH 7.4,,Stern-Volmer constant,1500 ± 10 M⁻¹
CC(C)(C)ONc1nc(Nc2ccnc(C(F)(F)F)c2)nc(-c2cccc(C(F)(F)F)n2)n1,,item: 2-hydroxyglutarate,mouse U-87 MG IDH2 R140Q xenograft,"oral, 18.05 and 54.14 mg/kg",,duration of tumour 2-HG suppression,≥ 24 h
COc1ccc(-c2nnc(COc3cc(-c4nc5ccccc5s4)ccc3OC)o2)cc1OC,,hind limb tonic extension,"albino mouse, MES-induced seizure","ip, 0.5 h",,minimal effective dose,30 mg/kg
CC(C)[C@H](NC(=O)CN)C(=O)N[C@@H](CCCCN)C(=O)NCC(=O)N[C@@H](CC(=O)O)C(=O)N[C@@H](CCCCN)C(=O)NCC(=O)N[C@@H](CC(N)=O)C(=O)N1CCC[C@H]1C(=O)NCC(=O)N[C@@H](Cc1c[nH]c2ccccc12)C(=O)N1CCC[C@H]1C(=O)NCC(=O)N[C@@H](C)C(=O)N1CCC[C@H]1C(=O)O,,,"UV 2237 fibrosarcoma, mouse","100 µg/mL coating, peptide-coated plates",,spreading cells,0%
[64Cu+2].c1ccc(CNCc2ccc(CN3CCCN4CCNCCCN(CC4)CC3)cc2)nc1,CXCR4,,"NOD/SCID mouse, U87 and U87-stb-CXCR4 xenografts, muscle","iv, 480 min, ex vivo",,tissue uptake,0.27 ± 0.05 %ID/g
O=C(O)C1OC(Oc2cccc(-c3nc(N4CCOCC4)c4oc5ncccc5c4n3)c2)C(O)C(O)C1O (centres unmarked),,glucuronide formation,human intestinal microsomes,,,Vmax,371 ± 12.3 pmol/min/mg
COc1cc(CNC(=O)C[C@H](C)CCC=C(C)C)ccc1OCc1cn(-c2ccc(Br)cc2)nn1,NCI-H23,SRB,,"10 µM, 48 h",,growth percent,60.1%
CCCCCCCOC(=O)Cc1c(C)n(C(=O)c2ccc(Cl)cc2)c2ccc(OC)cc12,,hot plate test,BALB/c mice,"50 mg/kg, 120 min",,latency of nociceptive response,14.9 ± 0.52 s
CCCCCCCCCCCCCCCC(=O)NCCCC[C@H](N)C(=O)N[C@@H](CC(=O)O)C(=O)N[C@H](C(=O)N[C@@H](Cc1c[nH]cn1)C(=O)N[C@@H](Cc1ccccc1)C(=O)N[C@@H](CCCNC(=N)N)C(=O)N[C@H](C(=O)N[C@@H](Cc1ccccc1)C(=O)N[C@@H](CCCNC(=N)N)C(=O)N[C@@H](CO)C(=O)N[C@@H](Cc1c[nH]cn1)C(=O)N[C@@H](CO)C(=O)N[C@@H](CC(=O)O)C(=O)N[C@@H](Cc1ccc(O)cc1)C(=O)N[C@@H](CCCNC(=N)N)C(=O)N[C@@H](CCCNC(=N)N)C(=O)N[C@H](C(=O)O)[C@@H](C)CC)[C@@H](C)O)[C@@H](C)O,,,"C57BL/6J mouse, MCD diet","intraperitoneal, 0.6 nmol/g, 3 weeks, 3 times weekly",,blood glucose,93.8 ± 3.9 mg/dL
CC[C@H]1[C@@H](O)[C@@H]2[C@H](CC[C@]3(C)[C@@H]([C@H](C)CCOS(=O)(=O)[O-])CC[C@@H]23)[C@@]2(C)CC[C@@H](O)C[C@@H]12.[Na+],,,"ob/ob NASH mice, blood","oral, 10 mg/kg once daily, week 8",,fed blood glucose,7.3 ± 0.3 mmol/L
CN(C)c1cc2ccccc2c(N)n1,,,"ICR mouse, CCl4 liver fibrosis","intraperitoneal, 1 and 3 mg/kg daily",,serum ALT,decreased
Cc1nc(C)c(C=[N+]([O-])C(C)(C)C)nc1C,,"western blot, item: tyrosine hydroxylase","mouse MPTP model, substantia nigra",30 mg/kg,increase,protein level,28.1%
CN(C)c1ccc2c(-c3cc(C(=O)N4CCN(CCCOc5ccc6nccc(C(=O)NCC(=O)N7CC(F)(F)C[C@H]7C#N)c6c5)CC4)ccc3C(=O)[O-])c3ccc(=[N+](C)C)cc-3oc2c1,,flow cytometry,"mouse B16-F10 tumour, tumour","intravenous, dose not given, 1 h",,probe signal in immune cells,20%
Cc1cc2c(cc1C1(c3ncc(C(=O)O)cn3)CC1)C(C)(C)CCC2(C)C,,"RNA sequencing, item: Cyp26a1 mRNA","rat, brain","dose not given, 24 h, single dose",reference: vehicle,log2 fold change,0.002
CC(=O)[O-].O.O.O.O.[Co+2].[O-]c1ccc(Br)cc1C=NCCN1CCOCC1,,FRAP,,240 µM,,ferric reducing power,61.8%
COc1cc2c(cc1OC)C(c1ccc(F)cc1F)N(CCCOc1ccc(CCC(=O)O)cc1)CC2 (centres unmarked),,,diet-induced obese C57BL/6J mice,"oral, 50 mg/kg, 38 days",reference: vehicle,body weight,decreased
CN(C)C(=O)c1ccnc(N2Cc3cn(Cc4ccc(F)cc4F)nc3C2)n1,,"myelinated axon density, electron microscopy","mouse cuprizone diet, corpus callosum",unit not given,reference: cuprizone vehicle,effect size d,1.81
Cc1cc([C@H](C(=O)N2C[C@H](O)C[C@H]2C(=O)N[C@@H](CC(=O)N2CCC(N3CCC(C#Cc4ccc(C(=O)N[C@H]5C(C)(C)[C@H](Oc6ccc(C#N)c(Cl)c6)C5(C)C)cc4)CC3)CC2)c2ccc(-c3scnc3C)cc2)C(C)C)on1,,,"mouse MDA-MB-453 xenograft, tumour","ip, 25 mg/kg single dose, 24 h",,c-Myc mRNA level,decreased
Cc1cc(O)c(C=O)c2c1C(=O)Oc1c(CO)c(O)c3c(c1O2)C(O)OC3=O (centres unmarked),,,"rat, male, streptozotocin-induced diabetes","10 mg/kg, 0 weeks",,fasting plasma glucose,326 ± 4.73 mg/dL
Cc1cnc(Nc2cc(C)c(C)c(C)c2)nc1Nc1ccc2oc(=O)[nH]c2c1,,,"rat, OVA asthma model, lung tissue","dose not given, 2 h after OVA challenge",,NF-κB p65 level,no effect
CC[C@H](C)[C@@H]1NC(=O)[C@H](Cc2ccc(O)cc2)NC(=O)[C@@H](N)CSSC[C@@H](C(=O)NCC(=O)N[C@@H](CCCCNC(=O)COCCOCCNC(=O)COCCOCCNC(=O)CC[C@H](NC(=O)CC[C@H](NC(=O)CCCCCCCCCCCCCCCCC(=O)O)C(=O)O)C(=O)O)C(=O)NCC(N)=O)NC(=O)[C@H](CC(N)=O)NC(=O)[C@H](CCC(N)=O)NC1=O,,,"C57BL/6 mice, diet-induced obese","subcutaneous, 2 µmol/kg daily, 14 days",reference: vehicle,body weight change,-6.7 ± 1.7%
NC[C@@H](C(=O)Nc1ccc(-c2cn[nH]c2)cc1)c1ccccc1,,,"NZW rabbit, magnetic bead ocular hypertension","topical, 0.1 %, 30 h",reference: baseline,maximum IOP reduction,8 ± 1.6 mm Hg
CCCCCCCCCCCCCCCC(=O)N[C@@H](CCC(=O)NCCCC[C@H](NC(=O)[C@H](CC(=O)O)NC(=O)[C@H](CO)NC(=O)[C@@H](NC(=O)[C@H](Cc1ccccc1)NC(=O)[C@@H](NC(=O)CNC(=O)[C@H](CCC(N)=O)NC(=O)[C@H](CO)NC(=O)[C@@H](N)Cc1c[nH]cn1)[C@@H](C)O)[C@@H](C)O)C(=O)N[C@@H](CO)C(=O)N[C@@H](CCC(=O)O)C(=O)N[C@@H](Cc1ccc(O)cc1)C(=O)N[C@@H](CC(C)C)C(=O)N[C@@H](CC(=O)O)C(=O)N[C@@H](CO)C(=O)N[C@@H](CCC(=O)O)C(=O)N[C@@H](CCCNC(=N)N)C(=O)N[C@@H](C)C(=O)N[C@@H](CCCNC(=N)N)C(=O)N[C@@H](CC(=O)O)C(=O)N[C@@H](Cc1ccccc1)C(=O)N[C@H](C(=O)N[C@@H](C)C(=O)N[C@@H](Cc1c[nH]c2ccccc12)C(=O)N[C@@H](CC(C)C)C(=O)N[C@@H](CCC(=O)O)C(=O)N[C@@H](C)C(=O)NCC(=O)NCC(=O)O)C(C)C)C(=O)O,,,diet-induced obese mouse,"subcutaneous, 10 nmol/kg daily, days 0-16",reference: vehicle,food intake reduction,19%
CC(C)=CCCC(C)=CCc1cc(-c2coc3cc(OC4OC(C(=O)O)C(O)C(O)C4O)ccc3c2=O)ccc1O (centres unmarked),,"glucuronidation, substrate",monkey liver microsomes,,,Vmax,6810 ± 1370 pmol/min/mg
COc1ccc(C2CC(c3ccc(C)cc3)=Nc3ccccc3S2)cc1OC (centres unmarked),,,"Wistar rat, STZ-induced diabetes, serum","10 mg/kg, 28 days",,LDL cholesterol,121 ± 4.67 mg/dL
CC(=O)C1=C(C)NC(=O)NC1c1ccccc1 (centres unmarked),,FRAP,,,reference: gallic acid,antioxidant potency ratio,~1.5 fold
COc1ccc2c(c1OC)C(C(Cl)(Cl)Cl)N1CCc3cc4c(cc3C1=C2)OCO4 (centres unmarked),,,"rat, STZ-induced diabetic, serum","oral, 12 mg/kg, day 28",,LDL cholesterol,43.9 ± 1.87 mg/dL
